Published values pooled from the literature.
A part holds a random share of what one study measured. Substitutions count along the parent as printed.

Block 1
Target: Interferon regulatory factor 5, full length, phosphomimetic (IRF5, Homo sapiens, UniProt Q13568-2, residues 1-514, S451D/S453D/S456D/S462D)
Method: protein-binding microarray
Form: double-stranded DNA, one strand shown
Sample: in vitro
Tested at: 940 nM top
Notes: 60-bp whole probe
Added: salmon DNA 0.4 mg/ml
Baseline: random background probes
Reading: higher = stronger binding
Measurement: fitted relative affinity
Constant ends, left off below: GCCTAGCAC … GTGCTAGGTCTTGATTCGCTTGACGCTGCTG
GGACTGTCAGCCACTTTTTG: -0.0256 z-score
GACGATTTTAGTATCGAGAC: 3.44 z-score
GACGAACTGAGTTTAGAGAC: -0.24 z-score
GACGAACTGCGTTTCGAGAC: 0.107 z-score
TTGTATTTGTCCCTATTTAA: 1.65 z-score
GATTATAAAATGTGTGTTTG: 0.401 z-score
TCAGATGTGTATATGACACT: -0.365 z-score
TCAACCTTGAACTTCGGACT: -0.202 z-score

Block 2
Target: Histamine H1 receptor (HRH1, Homo sapiens, UniProt P35367)
UniProt P35367, sequence (whole entry, looked up): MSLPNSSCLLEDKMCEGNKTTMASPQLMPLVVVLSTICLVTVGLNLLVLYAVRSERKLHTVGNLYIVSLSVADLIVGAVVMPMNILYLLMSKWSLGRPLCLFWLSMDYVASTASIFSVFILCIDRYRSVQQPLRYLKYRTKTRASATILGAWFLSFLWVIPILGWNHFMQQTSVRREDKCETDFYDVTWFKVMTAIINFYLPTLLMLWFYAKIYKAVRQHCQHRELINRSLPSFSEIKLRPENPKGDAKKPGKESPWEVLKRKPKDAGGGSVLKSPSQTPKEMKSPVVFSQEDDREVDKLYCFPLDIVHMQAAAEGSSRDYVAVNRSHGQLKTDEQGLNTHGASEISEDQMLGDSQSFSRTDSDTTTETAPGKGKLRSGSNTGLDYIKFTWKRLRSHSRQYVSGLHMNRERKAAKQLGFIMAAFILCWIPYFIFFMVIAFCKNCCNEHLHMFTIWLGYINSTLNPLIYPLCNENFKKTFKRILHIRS
Effect on: ligand displacement
Tested at: 10 µM
Measurement: inhibition
COc1cc(N[C@@H]2CCCC[C@]2(O)C(F)(F)F)ccc1F: -8.03%
O=C(N[C@H]1CCCCC/C=C\C2C[C@@]2(C(=O)O)NC(=O)[C@@H]2C[C@@H](Oc3ccncc3)CN2C1=O)OC1CCCC1 (stereo partly shown): 23.9%
CC(=O)Nc1ncc(CN2CCC[C@H](Cc3cc(C)nc(C)c3)C2)s1: 44%
CN1CCN(c2ccnc(NCCc3ccccc3)n2)CC1: 41.6%
CC[C@H](CC(=O)O)n1c(=O)c2ncccc2n(Cc2cn(C)c3cc(C)cc(C)c23)c1=O: 14.1%
c1ccc(C2CCN(c3cnc4c(N5CCOCC5)nccn34)CC2)cc1: 11.2%
O=c1nc(-c2ccccn2)sc2ccccc12: -14.9%
Cc1noc([C@H]2C[C@@H](c3ccc(C(F)(F)F)cc3)CN(C(=O)N3CCS(=O)(=O)C3)C2)n1: 11.5%
CO[C@H]1CC[C@H](CNc2ccc(S(=O)(=O)NC(=O)c3ccc(N4CCN(CC5=C(c6ccc(Cl)cc6)CC(C)(C)CC5)CC4)cc3Oc3cnc4[nH]ccc4c3)cc2[N+](=O)[O-])CC1: 34.2%
CC1=C(C#N)C(c2ccc3[nH]nc(C)c3c2)C(C#N)=C(C)N1: 17.7%

Block 3
Substitution: T160E
Target: ABI1, truncated, D143A, DHFR fusion (Arabidopsis thaliana)
Method: DHFR PCA, deep sequencing
Sample: yeast
Notes: methotrexate growth selection, single substitutions
Baseline: wild-type fitted maximum
Reading: higher = stronger binding
Measurement: relative binding score
Parent: PYL1, truncated, DHFR fusion (Arabidopsis thaliana); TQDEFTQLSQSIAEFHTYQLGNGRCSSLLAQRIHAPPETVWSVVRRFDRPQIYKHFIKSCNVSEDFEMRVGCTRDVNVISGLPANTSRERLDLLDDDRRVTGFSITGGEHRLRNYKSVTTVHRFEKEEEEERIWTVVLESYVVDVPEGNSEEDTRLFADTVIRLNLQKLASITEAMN; partner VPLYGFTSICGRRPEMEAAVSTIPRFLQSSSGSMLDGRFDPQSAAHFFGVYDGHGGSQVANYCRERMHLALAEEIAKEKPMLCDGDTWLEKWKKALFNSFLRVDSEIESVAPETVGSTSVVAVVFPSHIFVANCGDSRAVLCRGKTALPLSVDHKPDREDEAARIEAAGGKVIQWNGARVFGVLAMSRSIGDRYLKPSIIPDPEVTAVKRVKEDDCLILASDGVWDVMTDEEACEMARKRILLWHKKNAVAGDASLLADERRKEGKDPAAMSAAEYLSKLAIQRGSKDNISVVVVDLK
added: (+)-ABA 58 µM: 17.6%
added: (+)-ABA 1.4 µM: -12.3%
added: (+)-ABA 200 µM: 31.1%
added: (+)-ABA 0.0091 µM: 16.4%
added: (+)-ABA 0.11 µM: 11%
added: (+)-ABA 4.8 µM: 8.7%

Block 4
Target: Cyclin-dependent kinase 4, with cyclin D3 (CDK4, Homo sapiens, UniProt P11802)
UniProt P11802, sequence (whole entry, looked up): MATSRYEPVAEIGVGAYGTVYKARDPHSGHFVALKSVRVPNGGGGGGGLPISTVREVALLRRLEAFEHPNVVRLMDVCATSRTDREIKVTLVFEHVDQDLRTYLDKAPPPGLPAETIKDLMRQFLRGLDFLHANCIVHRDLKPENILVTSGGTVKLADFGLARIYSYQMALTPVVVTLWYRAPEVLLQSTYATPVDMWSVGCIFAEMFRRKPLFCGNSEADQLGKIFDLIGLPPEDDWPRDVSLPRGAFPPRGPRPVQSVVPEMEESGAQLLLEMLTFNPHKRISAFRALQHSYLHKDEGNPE
Effect on: enzyme activity
Action: inhibitor
Tested at: 0.5 µM
Baseline: control
Measurement: remaining activity
O=S(=O)(c1cccc2cnccc12)N1CCCNCC1: 98.5%
COc1cc2ncnc(Nc3ccc(Oc4ccccc4)cc3)c2cc1OC: 98.4%
COc1ccc(CNC(=O)Nc2ncc([N+](=O)[O-])s2)cc1: 94.4%
COc1cc2nccc(Oc3ccc(NC(=S)NC(=O)c4ccccc4C)cc3)c2cc1OC: 93.4%
OCC(O)CCON=C1C(c2c(O)[nH]c3ccccc23)=Nc2ccccc21 (stereo not shown): 66.1%
CO[C@H]1C[C@@H]2CC[C@@H](C)[C@@](O)(O2)C(=O)C(=O)N2CCCC[C@H]2C(=O)O[C@H]([C@H](C)C[C@@H]2CC[C@@H](O)[C@H](OC)C2)CC(=O)[C@H](C)/C=C(\C)[C@@H](O)[C@@H](OC)C(=O)[C@H](C)C[C@H](C)/C=C/C=C/C=C/1C: 104%
O=C(Nc1cccc(Nc2cc(Nc3cccc(C(F)(F)F)c3)ncn2)c1)C1CC1: 105%
O=C1NC(=O)C(c2cn(CCCn3ccnc3)c3ccccc23)=C1Nc1ccccc1: 91%
C#Cc1cccc(Nc2ncnc3cc(OCCOC)c(OCCOC)cc23)c1: 103%
COc1cc2ncnc(Nc3ccc(F)c(Cl)c3)c2cc1OCCCN1CCOCC1: 101%
O=C1NC(=O)C(c2cn(CCCO)c3ncccc23)=C1c1cnccn1: 95.9%
CCOC(=O)c1c(C)[nH]c(/C=C2\C(=O)Nc3ccccc32)c1C: 106%
O=C(CCCc1ccc(-c2ccccc2F)cc1)Nc1ccc(O)cc1: 110%

Repeated from above (block 4):
O=C(CCCc1ccc(-c2ccccc2F)cc1)Nc1ccc(O)cc1: 110%
CO[C@H]1C[C@@H]2CC[C@@H](C)[C@@](O)(O2)C(=O)C(=O)N2CCCC[C@H]2C(=O)O[C@H]([C@H](C)C[C@@H]2CC[C@@H](O)[C@H](OC)C2)CC(=O)[C@H](C)/C=C(\C)[C@@H](O)[C@@H](OC)C(=O)[C@H](C)C[C@H](C)/C=C/C=C/C=C/1C: 104%
COc1ccc(CNC(=O)Nc2ncc([N+](=O)[O-])s2)cc1: 94.4%
OCC(O)CCON=C1C(c2c(O)[nH]c3ccccc23)=Nc2ccccc21 (stereo not shown): 66.1%
COc1cc2ncnc(Nc3ccc(F)c(Cl)c3)c2cc1OCCCN1CCOCC1: 101%
O=C1NC(=O)C(c2cn(CCCn3ccnc3)c3ccccc23)=C1Nc1ccccc1: 91%
